Published values gathered from unrelated publications.
Parts stem from different laboratories: compare values within a part only.

Block 1 — method: protein-binding microarray; molecule type: double-stranded DNA, one strand shown; sample: in vitro; concentration: not given; direction: higher = stronger binding
Target: Max dimerization protein 1, bHLH-zipper, MAX partner unstated (MXD1, Homo sapiens, UniProt Q05195, residues 56-136)
Notes: k-mer, scored over probes, only values ≥0.25
Residues (chain): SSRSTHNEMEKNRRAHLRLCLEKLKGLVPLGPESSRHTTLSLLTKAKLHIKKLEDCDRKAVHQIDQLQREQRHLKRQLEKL
| Oligonucleotide | E-score |
| --- | --- |
| CGTGGCGA | 0.257 |
| CGTGGCAG | 0.253 |
| AACCACAT | 0.33 |
| CGTGTGTC | 0.33 |
| ACACGTGT | 0.489 |
| CCCCCGCC | 0.286 |
| GACCACGC | 0.41 |
| ATGCGGAC | 0.287 |

Block 2 — method: universal PBM; molecule type: double-stranded DNA, one strand shown; sample: in vitro; concentration: not given; direction: higher = stronger binding
Target: Sal-like protein 4, full length isoform B (SALL4, Homo sapiens, UniProt Q9UJQ4-2, residues 1-616)
Notes: 8-mer, flanks averaged, mean of replicates
| Oligonucleotide | E-score |
| --- | --- |
| CACCAGTC | -0.343 |
| ATGGGACA | -0.145 |
| CAGTCCCC | -0.333 |
| CCGCGAAG | -0.27 |
| ACACCTCC | -0.141 |

Block 3 — method: protein binding microarray; molecule type: double-stranded DNA, one strand shown; sample: in vitro; concentration: not given; relative to: not given; direction: higher = stronger binding
Target: Histone acetyltransferase KAT6A, winged helix 2, GST fusion (KAT6A, Homo sapiens, UniProt Q92794, residues 85-181)
Notes: 8-mer, flanks averaged, mean of 2 arrays, mostly near background
Residues (chain): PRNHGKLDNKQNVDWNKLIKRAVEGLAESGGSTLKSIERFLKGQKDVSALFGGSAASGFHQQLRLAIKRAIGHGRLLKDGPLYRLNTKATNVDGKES
| Oligonucleotide | E-score |
| --- | --- |
| AAACTCGC | 0.0878 |
| AGAAAATA | 0.0669 |
| AATAAGGG | -0.165 |
| AGGTGATG | -0.137 |
| GACATTGC | -0.0433 |
| AGCATGCT | -0.145 |

Other studies, line by line
| Molecule | target | assay | system | setting | scale | quantity | result |
| --- | --- | --- | --- | --- | --- | --- | --- |
| PhoQ, residues 284 288 289 292 302 303 AGCYAI | PhoP, residues 12 14 15 18 19 AWHSL (Escherichia coli, UniProt P23836) | Sort-seq, refers to: YFP reporter | E. coli | PhoQ-PhoP variant library, added: 10 µM Mg2+ | relative to: high Mg2+ state, higher = stronger signaling | fold induction | 2.3 |

Some of these lines once more (block 1):
| Oligonucleotide | E-score |
| --- | --- |
| CGTGGCGA | 0.257 |
| CGTGGCAG | 0.253 |
